Measured values pooled from the literature.
Protocols differ between the studies behind these lines. ± gives the spread as reported.

For `COc1cc(CNC(=O)C[C@H](C)CCC=C(C)C)ccc1OCc1cn(-c2ccc(F)cc2)nn1`, the growth percent was 65% (MDA-MB-468 breast cancer cells; SRB; 10 µM, 48 h).
With `CC[C@H](C)[C@H](NC(=O)[C@@H](NC(=O)[C@@H](N)C(C)C)C(C)C)C(=O)N[C@@H](C)C(=O)O` the viability was 78.9% (PC-12; Aβ42-induced neurotoxicity, inhibitor, MTT; concentration not given, 6 h, 37 °C, peptide to Aβ42 1:1, added: Aβ42 2 µM; relative to: untreated cells).
For `CC/C=C\C/C=C\C/C=C\C/C=C\C/C=C\C/C=C\CCC(=O)Nc1ccn(C2OC(CO)C(O)C2(F)F)c(=O)n1` (centres unmarked), the TGI was 210 nM (M14; NCI60 screen).
`CO[C@H]1N(OC)c2ccccc2[C@@]12CN=C(Nc1cc(C(F)(F)F)cc(C(F)(F)F)c1)S2` (relative stereo): “G2/M phase cells” 10.3 ± 1.29% (HCT-116; PI flow cytometry; 40 µM, 24 h).
`CSC(=NN=C(C)c1ccc(S(=O)(=O)N2CCC(C)CC2)cc1)N(C)C` — result for “apoptotic cells total”: 22% (HepG2; annexin V/PI staining; IC50, 72 h).
For `COc1ccc(CC(C)=C(c2ccc(Cl)cc2)c2ccc(OCCN3CCCC3)cc2)cc1`, the growth inhibition was 24.1% (NCI-60 tumour cell lines; 10 µM, mean over cell lines).
For `COc1cc(CNC(=O)C[C@H](C)CCC=C(C)C)ccc1OCc1cn(-c2ccc(Cl)cc2Cl)nn1`, the growth percent was 52.3% (SF-268 CNS cancer cells; SRB; 10 µM, 48 h).
The EC50 of `Nc1ncnc2c1c(-c1ccc(F)c(F)c1)cn2[C@@H]1O[C@H](CO)[C@@H](O)[C@H]1O` is reported as over 200000 nM (HEK; cytotoxicity).
The glucose consumption of `COc1cc([C@@H]2OC[C@@H]3[C@H]2CO[C@H]3c2cc(OC)c(O)c(OC)c2)cc(OC)c1O` is reported as 8.97 ± 0.47 mM (HepG2, palmitic acid-induced insulin resistance; 12.5 µM, 24 h).
For `CC(C)=CCC1CC(=O)C(C)=CC2C=C(C)CC(c3ccccc3)C2C(=O)C2=C(O)C(C)(CC=C1C)C(=O)C(C)(C)C2=O` (centres unmarked), 4E-BP1 phosphorylation read “decreased” (HEp-2; western blot; 10 µM).
`COc1cc(CNC(=O)C[C@H](C)CCC=C(C)C)ccc1OCc1cn(-c2ccc(C#N)cc2)nn1` gave a growth percent of 24.7% (SR leukaemia cells; SRB; 10 µM, 48 h).
`Cc1ccc(C(C)C)cc1.[Cl-].[Cl][Ru+].[Ru+].c1ccc(-c2cn(CCCCOc3ccccc3-c3nc4ccccc4s3)nn2)nc1` — result for “cells in phase”: 59.6% (MCF7; PI flow cytometry, item: G0/G1 phase; 8 µM, 24 h).
Under “dark over light toxicity ratio”, `COc1cc(OC)cc(C2=C3C(C)=C(I)C(C)=[N+]3[B-](F)(F)n3c(/C=C/c4c[nH]c5ccccc45)c(I)c(C)c32)c1` is recorded as 74 (HEp-2; light 1.5 J/cm^2).
`CCC(=C(c1ccc(Cl)cc1)c1ccc(OCCN2CCOCC2)cc1)c1ccccc1` gave a growth inhibition of 5.16% (NCI-60 tumour cell lines; 10 µM, mean over cell lines).
For `COc1cc(CNC(=O)C[C@H](C)CCC=C(C)C)ccc1OCc1cn(-c2cccc([N+](=O)[O-])c2)nn1`, the growth percent was 92% (UACC-257 melanoma cells; SRB; 10 µM, 48 h).
Under wound closure, `C=CC(=O)Nc1cc(Nc2nccc(-c3c(-c4cccc(OC)c4)n(C)c4ccccc34)n2)c(OC)cc1N(C)CCN(C)C` is recorded as “decreased” (H1975; scratch; concentration not given, 24 h).
`COc1cc(CNC(=O)C[C@H](C)CCC=C(C)C)ccc1OCc1cn(-c2ccc(Br)cc2)nn1` gave a growth percent of 85.4% (Malme-3M melanoma cells; SRB; 10 µM, 48 h).
For `CCNC(=O)Nc1ccc(S(=O)(=O)Oc2ccccc2CC)cc1`, “CD11b positive cells” read 38% (MOLM-13; differentiation, flow cytometry; 2-fold IC50, 120 h).
With `COc1cc(CNC(=O)C[C@H](C)CCC=C(C)C)ccc1O` the growth percent was 78.7% (OVCAR-4 ovarian cancer cells; SRB; 10 µM, 48 h).
The cytotoxic concentration of `Clc1ccc(C=[N+]2N=C(Nc3ccccc3)[S][Pt-]2([Cl])[Cl])s1` is reported as 60 µM (HEL human lung fibroblasts; altered cell morphology, microscopy; confluent cultures).

A few entries again:
For `CC(C)=CCC1CC(=O)C(C)=CC2C=C(C)CC(c3ccccc3)C2C(=O)C2=C(O)C(C)(CC=C1C)C(=O)C(C)(C)C2=O` (centres unmarked), 4E-BP1 phosphorylation read “decreased” (HEp-2; western blot; 10 µM).
`COc1cc(CNC(=O)C[C@H](C)CCC=C(C)C)ccc1OCc1cn(-c2ccc(C#N)cc2)nn1` gave a growth percent of 24.7% (SR leukaemia cells; SRB; 10 µM, 48 h).
